Published values from different studies.
Lines come from different studies, so protocols differ.
Organism: Escherichia coli

Compound	test	system	setting	MIC
CC[C@H](C)[C@H](NC(=O)[C@@H](CCCNC(=N)N)NC(=O)[C@H](CCCNC(=N)N)NC(=O)[C@@H]1CCCN1C(=O)[C@@H]1CCCN1C(=O)[C@H](CCCNC(=N)N)NC(=O)[C@@H]1CCCN1C(=O)[C@H](CCCNC(=N)N)NC(=O)[C@@H]1CCCN1C(=O)[C@H](CC(C)C)NC(=O)[C@H](Cc1ccc(O)c([N+](=O)[O-])c1)NC(=O)[C@@H]1CCCN1C(=O)[C@@H]1CCCN1C(=O)[C@H](CCCCN)NC(=O)[C@H](CC(=O)O)NC(=O)[C@@H](N)C(C)C)C(=O)N[C@@H](Cc1ccc(O)cc1)C(=O)N[C@@H](CC(N)=O)C(=O)N[C@H](CCCNC(=N)N)C(N)=O	broth microdilution	MC4100	18 h, 37 °C, 25% MHB2	8 µg/mL
CC(C)C[C@@H](NC(=O)[C@@H](CCCNC(=N)N)NC(=O)[C@H](N)CCCNC(=N)N)C(=O)N[C@H](CC(C)C)C(=O)N[C@H](CCCNC(=N)N)C(=O)N[C@H](CCCCN)C(=O)N[C@H](CC(C)C)C(=O)N[C@H](CCCCN)C(=O)NCC(=O)N[C@H](CCCCN)C(=O)N[C@H](CCCCN)C(=O)N[C@H](CC(C)C)C(=O)N[C@H](Cc1ccc(O)cc1)C(=O)N[C@H](CC(C)C)C(=O)N[C@H](Cc1ccc(O)cc1)C(=O)N[C@H](Cc1ccccc1)C(=O)N[C@H](CCCCN)C(=O)N[C@H](CC(C)C)C(=O)N[C@H](CCC(N)=O)C(=O)N[C@H](CC(C)C)C(=O)N[C@H](CC(C)C)C(=O)N[C@H](CCCCN)C(=O)N[C@H](CCCCN)C(N)=O	broth microdilution	KCTC 1682, Mueller-Hinton broth	24 h, 37 °C	8 µM
CN[C@@H]1[C@H](O)[C@H](NC)[C@H]2O[C@]3(O)[C@H](O[C@@H]2[C@H]1O)O[C@H](C)C[C@H]3NC(=O)Cc1ccccn1	microbial growth, broth dilution	K12		200 µg/mL
CC[C@H](C)[C@H](NC(=O)[C@@H](NC(=O)[C@H](CCCCN)NC(=O)[C@H](CCCCN)NC(=O)[C@@H](NC(=O)[C@H](Cc1c[nH]c2ccccc12)NC(=O)[C@H](CCCCN)NC(=O)[C@@H](NC(=O)[C@H](CC(C)C)NC(=O)[C@H](CCCCN)NC(=O)[C@H](CCCCN)NC(=O)[C@@H](N)C(C)C)[C@@H](C)CC)[C@@H](C)CC)C(C)C)C(N)=O			24 h, 37 °C, Mueller-Hinton broth, CaCl2 2.5 mM	128 µM
CC(C)[C@H](NC(=O)[C@H](CCCNC(=N)N)NC(=O)[C@H](Cc1ccccc1)NC(=O)[C@H](CS)NC(=O)[C@@H](N)Cc1c[nH]c2ccccc12)C(=O)N[C@@H](CS)C(=O)N[C@@H](Cc1ccccc1)C(=O)N[C@@H](CCCCN)C(=O)NCC(=O)N[C@@H](Cc1ccccc1)C(=O)N[C@@H](CS)C(=O)N[C@@H](Cc1ccc(O)cc1)C(=O)N[C@@H](CCCNC(=N)N)C(=O)N[C@@H](Cc1ccccc1)C(=O)N[C@@H](CS)C(=O)O	broth microdilution	K88, Mueller-Hinton broth	37 °C	70.3 µg/mL
CC1(C)[C@H](NC(=O)/C(=N\OCCN)c2csc(N)n2)C(=O)N1OS(=O)(=O)O	agar dilution	CDC 1001728, NDM-1		16 µg/mL
CO[C@@H](C(N)=O)[C@H](NC(=O)c1ccc(NC(=O)[C@@H](N)Cc2ccccc2)cc1)C(=O)Nc1ccc(C(=O)Nc2ccc(C(=O)Nc3ccc(C(=O)O)c(O)c3OC(C)C)c(O)c2OC(C)C)cc1		pentapeptide repeat protein clone	16 h, 37 °C	> 2 µg/mL
CC[C@H](C)[C@H](NC(=O)[C@@H](CCCNC(=N)N)NC(=O)[C@H](CCCNC(=N)N)NC(=O)[C@@H]1CCCN1C(=O)[C@H](Cc1c[nH]c2ccccc12)NC(=O)[C@H](CCCNC(=N)N)NC(=O)[C@@H]1CCCN1C(=O)[C@H](CCCNC(=N)N)NC(=O)[C@@H]1CCCN1C(=O)[C@H](CC(C)C)NC(=O)[C@H](Cc1ccc(O)cc1)NC(=O)[C@@H]1CCCN1C(=O)[C@@H]1CCCN1C(=O)[C@H](CCCCN)NC(=O)[C@H](CC(=O)O)NC(=O)[C@@H](N)C(C)C)C(=O)N[C@@H](Cc1ccc(O)cc1)C(=O)N[C@@H](CC(N)=O)C(=O)N[C@H](CCCNC(=N)N)C(N)=O	broth microdilution	ATCC 25922	18 h, 37 °C, 25% MHB2	8 µg/mL
CC[C@H](C)[C@H](NC(=O)[C@@H](NC(=O)[C@H](CCCCN)NC(=O)[C@H](CCCCN)NC(=O)[C@@H](NC(=O)[C@H](Cc1c[nH]c2ccccc12)NC(=O)[C@H](CCCCN)NC(=O)[C@H](Cc1c[nH]c2ccccc12)NC(=O)[C@H](CC(C)C)NC(=O)[C@H](CCCCN)NC(=O)[C@H](CCCCN)NC(=O)[C@@H](N)C(C)C)[C@@H](C)CC)C(C)C)C(N)=O			24 h, 37 °C, Mueller-Hinton broth, CaCl2 2.5 mM	32 µM
C=C1NC(=O)C2CSCC3NC(=O)C(CSC(C)C(NC(=S)C(Cc4cnc[nH]4)NC(=O)c4csc(C(C)NC(C)=O)n4)C(=O)N[C@H](CC(C)C(=O)NC(=O)CC(C(=O)O)NC(=O)C(C)NC3=O)C(=O)N2)NC(=O)[C@@H]2CCCN2C(=O)[C@@H](CC(C)C)NC1=O (stereo partly shown)	bacterial growth	ATCC 25922		> 32 µg/mL
CC[C@H](C)[C@H](NC(=O)[C@@H](CCCNC(=N)N)NC(=O)[C@H](CCCNC(=N)N)NC(=O)[C@@H]1CCCN1C(=O)[C@@H]1CCCN1C(=O)[C@H](CCCNC(=N)N)NC(=O)[C@@H]1CCCN1C(=O)[C@H](CCCNC(=N)N)NC(=O)[C@@H]1CCCN1C(=O)[C@H](CC(C)C)NC(=O)[C@H](Cc1ccc(O)cc1)NC(=O)[C@@H]1CCCN1C(=O)[C@@H]1CCCN1C(=O)[C@H](CCCCN)NC(=O)[C@H](CC(=O)O)NC(=O)[C@@H](N)C(C)C)C(=O)N[C@@H](Cc1ccc(O)c([N+](=O)[O-])c1)C(=O)N[C@@H](CC(N)=O)C(=O)N[C@H](CCCNC(=N)N)C(N)=O	broth microdilution	BW25113	18 h, 37 °C, 25% MHB2	8 µg/mL
CSCC[C@H](NC=O)C(=O)N[C@@H](CCCNC(=N)N)C(=O)N[C@H](C(=O)NCC(=O)N[C@@H](CC(N)=O)C(=O)N[C@@H](C)C(=O)N[C@@H](CC(N)=O)C(=O)NCC(=O)N1CCN(c2cc3c(cc2F)c(=O)c(C(=O)O)cn3C2CC2)CC1)[C@@H](C)O	multistep resistance selection	K-12 MG1655	day 4	3.12 µM
CC[C@H](C)[C@H](NC(=O)[C@@H](CCC(=O)O)NC(=O)[C@H](CC(C)C)NC(=O)c1cccc(-c2ccccn2)n1)C(=O)N[C@H]1CCCCNC(=O)[C@H](CC(N)=O)NC(=O)[C@@H](CC(=O)O)NC(=O)[C@H](Cc2c[nH]cn2)NC(=O)[C@@H](Cc2ccccc2)NC(=O)[C@H]([C@@H](C)CC)NC(=O)[C@@H](CCCN)NC1=O		ATCC 25922	18 h, 37 °C, 0.3 mM ZnSO4 LB	> 64 µg/mL
CC[C@H](C)[C@H](NC(=O)[C@@H](CCCNC(=N)N)NC(=O)[C@H](CCCNC(=N)N)NC(=O)[C@H](CCCNC(=N)N)NC(=O)[C@H](Cc1c[nH]c2ccccc12)NC(=O)[C@H](CCCNC(=N)N)NC(=O)[C@@H]1CCCN1C(=O)[C@H](CCCNC(=N)N)NC(=O)[C@@H]1CCCN1C(=O)[C@H](CC(C)C)NC(=O)[C@H](Cc1ccc(O)cc1)NC(=O)[C@@H]1CCCN1C(=O)[C@@H]1CCCN1C(=O)[C@H](CCCCN)NC(=O)[C@H](CC(=O)O)NC(=O)[C@@H](N)C(C)C)C(=O)N[C@@H](Cc1ccc(O)cc1)C(=O)N[C@@H](CC(N)=O)C(=O)N[C@H](CCCNC(=N)N)C(N)=O	broth microdilution	ATCC 25922	18 h, 37 °C, 25% MHB2	16 µg/mL
CCCCCCCC(=O)N[C@@H](CCN)C(=O)N[C@H](C(=O)N[C@@H](CCN)C(=O)N[C@H]1CCNC(=O)[C@H]([C@@H](C)O)NC(=O)[C@H](CCN)NC(=O)[C@H](CCN)NC(=O)[C@H](CCCc2ccccc2)NC(=O)[C@@H](CC(C)C)NC(=O)[C@H](CCN)NC1=O)[C@@H](C)O	broth microdilution	mcr-1, colistin-resistant		1 to 2 µg/mL
Cc1ccc2[nH]c3c(c2c1)CCCC3NCCc1ccc(O)cc1 (stereo not shown)	broth microdilution	O-19592		> 128 µg/mL

Excerpt of the above:
Compound	test	system	setting	MIC
CSCC[C@H](NC=O)C(=O)N[C@@H](CCCNC(=N)N)C(=O)N[C@H](C(=O)NCC(=O)N[C@@H](CC(N)=O)C(=O)N[C@@H](C)C(=O)N[C@@H](CC(N)=O)C(=O)NCC(=O)N1CCN(c2cc3c(cc2F)c(=O)c(C(=O)O)cn3C2CC2)CC1)[C@@H](C)O	multistep resistance selection	K-12 MG1655	day 4	3.12 µM
